Measurements collected from several papers.
Parts stem from different laboratories: compare values within a part only. Changes are numbered by the printed parent chain.

Set 1
Target: Phosphate system positive regulatory protein PHO4, full length, GST-tagged (PHO4, Saccharomyces cerevisiae, UniProt P07270, residues 1-312)
Technique: competition protein-binding microarray
Form: double-stranded DNA, one strand shown
Medium: in vitro
Concentration: 2 µM
Setting: whole 60-bp probe, lowest competitor level
Together with: Cbf1 competitor, 0.05 µM
Reading: higher = stronger binding
Shared flanks, not repeated: … GTCTTGATTCGCTTGACGCTGCTG
Residues (chain): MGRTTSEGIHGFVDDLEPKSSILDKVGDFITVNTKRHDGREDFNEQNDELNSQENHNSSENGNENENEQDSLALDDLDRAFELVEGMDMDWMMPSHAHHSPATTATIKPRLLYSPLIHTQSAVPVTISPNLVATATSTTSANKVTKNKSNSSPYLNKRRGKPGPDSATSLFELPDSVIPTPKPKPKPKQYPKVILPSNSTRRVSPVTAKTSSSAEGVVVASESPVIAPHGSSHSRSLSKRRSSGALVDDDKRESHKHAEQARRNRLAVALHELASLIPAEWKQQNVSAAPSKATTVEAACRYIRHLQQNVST
Strand | fluorescence intensity [a.u.]
TTACAATAATAAAAGCACGTGACAAAGTCCCTAGAT | 15800
GGAGAAACCAATGGGGGCGTGGGTAATGGAAACATT | 11000
CGTTCAAAGCCTTTTCACGTTGAGCATCAGCCTTAG | 6500
CACCATTTGATGTTGCACATGCGTTCGATATACCCC | 11000
CCGAAAAGCAACTGGCACGTTTTGAGCTCGGTGTTT | 13700

Set 2
Target: Histone acetyltransferase KAT6A, winged helix 1, GST fusion (KAT6A, Homo sapiens, UniProt Q92794, residues 1-85)
Technique: protein binding microarray
Form: double-stranded DNA, one strand shown
Medium: in vitro
Concentration: not given
Setting: 8-mer, flanks averaged, mean of 2 arrays, mostly near background
Baseline: not given
Reading: higher = stronger binding
Target sequence (chain): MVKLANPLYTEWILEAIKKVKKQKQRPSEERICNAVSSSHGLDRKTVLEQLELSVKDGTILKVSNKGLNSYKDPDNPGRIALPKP
Strand | E-score
AGGACTCA | -0.108
CAACTCTG | -0.127
ATCTGGGG | -0.284
AAAAGAGG | -0.175
ATTCCAAC | -0.227
ATCGTCCC | -0.107

Set 3
Target: CCNA2, cyclin fold, Cln2 fusion (human)
Technique: yeast growth competition, sequencing
Medium: yeast
Setting: weak parent motif
Baseline: not given
Reading: higher = stronger binding
Starting sequence: MASTL docking peptide (human); PMIAKNLMCELDE
Change | normalised enrichment score
I3D | -0.63
D12M | 0.319
L11I | 0.124
N6A | -0.166

Further values, each from its own experiment
Substance | target | test | test system | setting | scale | endpoint | result
PhoQ, residues 284 288 289 292 302 303 ALAMYF | PhoP, residues 12 14 15 18 19 NQGLL (Escherichia coli, UniProt P23836) | Sort-seq, item: YFP reporter | E. coli | PhoQ-PhoP variant library, together with: 10 µM Mg2+ | baseline: high Mg2+ state, higher = stronger signaling | fold induction | 9.19

Repeated from above (set 2):
Strand | E-score
ATTCCAAC | -0.227
